Published values pooled from the literature.
Each numbered part is a random draw from the data of one study; scales do not carry over between parts.

Sample 1
Target: Fragile X messenger ribonucleoprotein 1, C-terminal low-complexity region (Fmr1, Mus musculus, UniProt P35922)
Method: RNA Bind-n-Seq
Molecule type: RNA
Medium: in vitro
Concentration: 200 nM
Setting: whole 134-nt RNA, ends assumed
Added: 150 mM LiCl
Reference: input library
Direction: higher = stronger binding
Measurement: log2 enrichment
Library: 7-deaza-guanosine replaces G
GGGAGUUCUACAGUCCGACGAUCCCUGUGCUACACAUCGUAUGUACCGAAUCGGGCCCCCCGGGCCCCCCGGGGCCCCCCGGGAAAGUAUUAUGUUACGCCGUUCGGAUCUGCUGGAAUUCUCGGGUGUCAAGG: -2.52
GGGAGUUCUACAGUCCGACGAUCUGUCCCAGGGAACGCCGGUGCAGAUGUGCUUCUUGUGGGCUCAGAGGCCUUCGUGCUGCUGGACGGGCAGGAGCUGACGCCUCGCUGGACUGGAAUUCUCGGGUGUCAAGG: -2.9
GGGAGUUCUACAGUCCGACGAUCUGGCCCUGGUGGCAUGCGGGGAGGAAGAGGUCGCCUCAUGGAUCGUGGUGGUCCCGGUGGAAUGUUCAGAGGUGGCCGUGGUGGAGACAGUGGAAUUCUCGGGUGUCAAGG: -0.131
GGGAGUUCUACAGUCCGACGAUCUCCUGUGCUACACAUCGUAUGUACCGAAUCGGGGAAAAAGGAAAAAGGGGAAAAAGGGGAAAGUAUUAUGUUACGCCGUUCGGAUCUGCAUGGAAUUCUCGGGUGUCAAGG: -0.545
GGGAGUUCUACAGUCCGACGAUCUCAUUAGAAGAUCUAAUUGAGAGAGAGGUAACUGGUAUCCUUUUCCUACCAUAAAAACUGAAAGCAGUAUUUAUUGUGAAAUUCUAAUACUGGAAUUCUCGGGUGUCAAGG: -0.363

Sample 2
Target: Sal-like protein 4, full length isoform B (SALL4, Homo sapiens, UniProt Q9UJQ4-2, residues 1-616)
Method: universal PBM
Molecule type: double-stranded DNA, one strand shown
Medium: in vitro
Concentration: not given
Setting: 8-mer, flanks averaged, mean of replicates
Direction: higher = stronger binding
Measurement: E-score
Construct (chain): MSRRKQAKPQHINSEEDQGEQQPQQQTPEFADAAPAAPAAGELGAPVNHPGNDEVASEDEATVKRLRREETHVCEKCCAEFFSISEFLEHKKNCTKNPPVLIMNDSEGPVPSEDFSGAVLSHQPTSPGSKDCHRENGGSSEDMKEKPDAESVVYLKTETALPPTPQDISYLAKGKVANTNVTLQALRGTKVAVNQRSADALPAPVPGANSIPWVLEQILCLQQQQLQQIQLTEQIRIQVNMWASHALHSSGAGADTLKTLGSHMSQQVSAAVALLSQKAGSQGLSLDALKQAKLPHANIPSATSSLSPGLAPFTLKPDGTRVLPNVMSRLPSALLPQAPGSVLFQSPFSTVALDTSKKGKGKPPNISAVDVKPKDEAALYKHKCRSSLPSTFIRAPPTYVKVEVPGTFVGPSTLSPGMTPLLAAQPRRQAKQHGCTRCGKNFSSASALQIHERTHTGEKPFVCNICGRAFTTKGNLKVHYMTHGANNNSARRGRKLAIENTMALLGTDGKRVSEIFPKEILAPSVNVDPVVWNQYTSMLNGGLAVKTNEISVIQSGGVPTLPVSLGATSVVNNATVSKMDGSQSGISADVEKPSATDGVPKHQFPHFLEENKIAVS
GTTAATGA: 0.24
AGACACGG: -0.0674
AAGGATAG: 0.0877
ACTATGGA: 0.111

Sample 3
Target: RNA binding protein fox-1 homolog 2, RRM domain, GST-SBP tag (RBFOX2, Homo sapiens, UniProt O43251-10, residues 100-194)
Method: RNA Bind-n-Seq
Molecule type: RNA
Medium: in vitro
Concentration: 365 nM
Setting: natural RNA segment, single round, ends assumed
Reference: no-protein control
Direction: higher = stronger binding
Measurement: RBNS enrichment (R)
GGGAGUUCUACAGUCCGACGAUCGGAGUGAGAUGUUUUUCUAUAUUUUAGAACUAUUUUUGGAUAAAUUAUAUAUUUUCCUUCCUGAUUGAAUCAUCAUCACUCCCUGUAACUAGCGAAAACCACCAGUCCAGUGGAAUUCUCGGGUGCCAA: 0.375
GGGAGUUCUACAGUCCGACGAUCCCUGAGGAUCGCAAAGUAUACACAUAUGUAGCAUAAAAUGCAUUCAGAAAUUUGAUUUAUUCUUGGACUGUACUCUUCGCAUGGACUGGGAAGUUCUUUUAAAUCAUACUUGGAAUUCUCGGGUGCCAA: 8.56
GGGAGUUCUACAGUCCGACGAUCCUUUGUUACAGUGCUAACAUCUUUUUUUUUGUGCAGGUAUCCAUGAUUAUUAAGCAGGGUGGAAGUUCAGUAUUUUGUCAUUUAAAAAGAUUAGUUAUAUAAUGUCUGCUUGGAAUUCUCGGGUGCCAA: 0.981
GGGAGUUCUACAGUCCGACGAUCUUCAUGGUUCAUGUGAAACGUGAUAUCACUGGGCUGCCAAAGCACAAAUGAGUCAGUAUUCUUGGGCAGAAGUGAACAUCCCAAGGAUUCAACAGGGAAUAAACAGGCUCUGGAAUUCUCGGGUGCCAA: 0.4

Single results of other studies
PhoQ, residues 284 288 289 292 302 303 WVSSAF  fold induction (PhoP, residues 12 14 15 18 19 NNFVT (Escherichia coli, UniProt P23836); Sort-seq, refers to: YFP reporter; E. coli; PhoQ-PhoP variant library, added: 10 µM Mg2+; reference: high Mg2+ state, higher = stronger signaling): 19.5
